Measurements pooled from the literature.
Lines come from different studies, so protocols differ. ± gives the spread as reported.

Structure (SMILES)	assay	system	conditions	scale	measurement	value
CC(C)[C@H](NC(=O)[C@@H]1CCCN1C(=O)[C@H](CCCNC(=N)N)NC(=O)[C@H](CS)NC(=O)[C@H](Cc1c[nH]c2ccccc12)NC(=O)[C@H](CCCNC(=N)N)NC(=O)[C@@H](Cc1ccccc1)NC(=O)[C@H](Cc1c[nH]cn1)NC(=O)[C@H](CCC(=O)O)NC(=O)[C@H](CS)NC(=O)[C@H](CS)NC(=O)[C@@H]1CC(=O)N[C@@H](CCCNC(=N)N)C(=O)NCC(=O)N[C@@H](CC(=O)O)C(=O)N[C@H](Cc2ccc(O)cc2)C(=O)N1)C(N)=O [technetium-99m labelled]		C57 mouse, female, B16/F1 melanoma	intravenous, 0.037 MBq, 2 h	baseline: tumour over kidneys	tumour to tissue ratio	0.68
N=C(N)NCCC[C@H](NC(=O)[C@@H]1CCCN1C(=O)[C@H](Cc1ccccc1)NC(=O)[C@@H]1CCCN1C(=O)[C@H](Cc1c[nH]cn1)NC(=O)[C@@H](N)Cc1ccccc1)C(=O)O		Sprague-Dawley rat male, plasma	oral gavage, 50 mg/kg		volume of distribution	462 ± 319 L/kg
N=C(N)NCCC[C@@H]1NC(=O)[C@H](Cc2c[nH]c3ccccc23)NC(=O)[C@@H](CC2CCCCC2)NC(=O)[C@@H]2CCCN2C(=O)[C@@H](NC(=O)CCc2ccccc2)CCCNC1=O		C57BL/6J mouse, plasma spinal cord	subcutaneous, 1 mg/kg single dose		MRT(0-last)	48.6 min
Cn1c(=O)oc2ccc(-c3ccc(CC(C#N)NC(=O)C4CNCCCO4)c(F)c3)cc21 (stereo not shown)		human	oral, 40 mg once daily, treatment-related AE, multiple ascending dose		lymphadenopathy incidence	0%
NC(=O)c1cccnc1.O.O=c1[nH]cc(F)c(=O)[nH]1.O=c1[nH]cc(F)c(=O)[nH]1.O=c1[nH]cc(F)c(=O)[nH]1		Sprague-Dawley rat	oral, 0.06 mmol/kg		alpha half-life	11.8 ± 3 min
CCCCn1c2ccc([N+](=O)[O-])cc2c(=O)n1Cc1ccccc1	resazurin	peritoneal macrophages, BALB/c mice	48 h, 10% FBS		CC50	5.1 ± 1.6 µM
CCCCN1C(=O)c2cccc3c(NCCCCCCCCN4CCOCC4)ccc(c23)C1=O		water	pH 6	baseline: fluorescein/0.1 N NaOH	fluorescence quantum yield	0.23
O=C(O)[C@@H]1C[C@@H](O)CN1C(=O)[C@@H]1CCCN1	potentiometric titration		40 °C, MAH-1 complex, together with: Fe(III)		log beta	11
CCc1c2c(nc3ccc(O)cc13)-c1cc3c(c(=O)n1C2)COC(=O)[C@]3(O)CC		human patients, plasma	intravenous, 3 mg/m^2 of parent drug		Cmax	6 ng/mL
CC(=O)N[C@H](CCNC(=O)c1cc(NC(=O)c2cc(NC(=O)c3cc(NC(=O)c4nccn4C)cn3C)cn2C)cn1C)C(=O)Nc1cn(C)c(C(=O)Nc2cc(C(=O)Nc3cc(C(=O)Nc4cc(C(=O)NCCCN(C)CCCN[14C](=O)c5cccc([14C](=O)O)c5)n(C)c4)n(C)c3)n(C)c2)n1		NSG male mice, LNCaP xenograft, liver	intraperitoneal, 20 nmol per animal, 24 h		tissue concentration	1.04 mg/kg
